Published values gathered from unrelated publications.
Several values in a cell are separate wells, animals, samples, runs or records. ± marks the error that the study gave.

O=C(OC(C(F)(F)F)C(F)(F)F)N1CCN(Cc2cccc(Oc3ccccc3)c2)CC1
k3 (PET blocking study; rhesus monkey, brain OCC; 0.01 mg/kg, compound pretreatment, together with: [18F]T-401 tracer): 0.027 min⁻¹

Cc1noc(C)c1-c1cc(C(O)(c2ccccn2)c2ccccn2)c2nc(C3CC3)[nH]c2c1
maximum induction (refers to: HEXIM1 expression; human, peripheral blood; 2 mg, day 1, 1604 study): 8%

COc1ccc(-c2cncc(N[C@@H](C)c3cccc(NC(=O)c4cncc(C)c4)c3)n2)cc1OC
delta delta Ct (refers to: rno-miR-93-5p; rat SU5416/hypoxia model, lung; dose not given, unit not given; relative to: SU5416/hypoxia vehicle): -0.578

O=C(O)CNC(=O)Cc1ccccc1
sarcomere length (ventricular cardiomyocytes, C57BL/6 mouse; dose not given, 0.04 s): 1.72 µm

CC(CCc1ccc(O)cc1)NCCc1ccc(O)c(O)c1 (centres unmarked)
stroke volume change (anaesthetised rat; intravenous infusion, 1 µg/kg/min for 15 min; relative to: baseline): 3%

NC(=O)c1cnc2[nH]ccc2c1N[C@@H]1[C@@H]2CC3C[C@H]1C[C@@](O)(C3)C2
CD8+ effector T-cell change (flow cytometry; Japanese healthy men, blood; oral, 10 mg twice daily, 72 h after day 7 dose; relative to: baseline): 0.43%

CSCCNc1nc(SCCC(F)(F)F)nc2c1ncn2[C@@H]1O[C@H](COP(=O)(O)OP(=O)(O)C(Cl)(Cl)P(=O)(O)O)[C@@H](O)[C@H]1O
patients with IPA above 90% (light transmittance aggregometry; human patients, platelet-rich plasma; dose not given, 3 h, together with: ADP 20 µM; relative to: patients): 0%

COc1ccc(F)cc1C(=O)NCc1ccc(-c2nn([C@@H](C)C(F)(F)F)c(N)c2C(N)=O)cc1
overall response rate (follicular lymphoma patients; dose not given, all efficacy-evaluable patients): 50%

CCO[C@H]1CCN(Cc2c(OC)cc(C)c3[nH]ccc23)[C@H](c2ccc(C(=O)O)cc2)C1
C3d-positive type III RBCs (PNH patients, blood; oral, 25 mg then 100 mg, week 8, mean percent change; relative to: baseline): -84%

OC(CCN1CCCCC1)(c1ccccc1)C1CC2C=CC1C2 (centres unmarked)
EEG Beta1-power Fz-Cz (resting-state EEG; healthy elderly humans; oral, 2 mg, eyes open, LS mean): 2.3 µV²

CC(C)[C@H](C(=O)Nc1ccc(C(=O)NO)cc1)c1ccccc1
tumour volume change (volumetric MRI; human, right vagal schwannoma; dose not given, day 835; relative to: baseline): 52.5%

Cc1ccc(C(=O)Nc2ccnc(S(N)(=O)=O)c2)c(N2CCCC(F)(F)CC2)n1
laser-evoked flare size (rhesus macaque; intravenous, 1.3 mg/kg, together with: laser 1400 mA; relative to: pre-treatment): decreased

Cc1cn(-c2ccc3n(c2=O)CCN([C@@H](C)[C@@H]2CC[C@H](c4cc(F)c(Cl)cc4C(F)(F)F)O2)C3=O)cn1
change from baseline (refers to: amyloid beta 40; human, non-elderly, cerebrospinal fluid; 360 mg once daily, 14 days, sampled 336 h; relative to: placebo): -49.9%

C=CCn1c(=O)c2cnc(Nc3ccc(N4CCN(C)CC4)cc3)nc2n1-c1ccc2c(n1)[C@@](O)(CC)CC2
tumour growth inhibition (NCI-H23 xenograft, NCG mice; oral, 80 mg/kg, day 35, once daily x 35): 63.8%

C/C(=N\CCNCCNCC/N=C(\C)c1c(O)c2ccccc2oc1=O)c1c(O)c2ccccc2oc1=O
DPPH radical scavenging (1 mg/mL, 60 min): 96.7%

Cc1cc(Nc2cc3ncccc3c(N[C@@H]3C[C@H]4CC[C@@H](C3)N4CCC#N)n2)n[nH]1
change physician global assessment (moderate-severe ulcerative colitis patients; 80 mg, day 28, Mayo subscore, unit not given; relative to: baseline): -0.2

COc1ccc2c(c1)c(CC(=O)O)c(C)n2C(=O)c1ccc(Cl)cc1
DPPH radical scavenging (DPPH; methanol; concentration not given, 60 min): 24.6 ± 0.47%

O=C1O[C@H]([C@@H](O)CO)C(O)=C1O
inhibition (nitric oxide scavenging; 120 µM): 43.6%

COc1nnc2ccc(N3CCC(c4ccc(OCCN5CCN(C)C(=O)[C@H]5C)cc4)CC3)nn12
time above HEXIM1 threshold (human patients; 10 mg twice daily, 2-fold above baseline, monotherapy and combination cohorts): 0.28 h

O=P(O)(O)OC[C@H](O)CO
log2 fold change (binding, MIDAS equilibrium dialysis LC-MS; A2AR-BRIL thermostabilized; concentration not given; relative to: no-protein control): -0.0422

C[C@@H]1C[C@H]2[C@@H]3CCC4=CC(=O)C=C[C@]4(C)[C@@]3(F)[C@@H](O)C[C@]2(C)[C@@]1(O)C(=O)CO
IL6 level difference (mouse, oxazolone dermatitis, plasma; topical, 20 mg/ear, once daily, unit not given; relative to: vehicle): 92.6

Cc1cc([C@H]2C[C@H]3[C@@H](CF)SC(N)=N[C@@]3(c3ccc(F)cc3F)CO2)on1
brain Aβ40 level (refers to: Aβx-40; wild-type mouse, brain; subcutaneous, 100 mg/kg, 3 h): 1.5 ng/g

O=P(O)(O)C(Cl)(Cl)P(=O)(O)O
distance travelled (open field test; UT+/+ and UT-/- mice, sham; 23000 µg/mL): 30 m and 37 m and 31 m and 29 m

O=C(O)CCO
log2 fold change (binding, MIDAS equilibrium dialysis LC-MS; A2AR-BRIL thermostabilized; concentration not given; relative to: no-protein control): -0.284

Cc1cc(C)c(CNC(=O)c2cc(Cl)c3c(c2C)O[C@@](C)([C@H]2CC[C@H](N(C)C)CC2)O3)c(=O)[nH]1
best overall response PD (IWG 2007 criteria; human, relapsed/refractory peripheral T-cell lymphoma; dose not given): 27%

CO[C@H]1CC[C@H](N2C(=O)CNc3ncc(-c4ccc(C(C)(C)O)nc4)nc32)CC1
pAKT change from baseline (flow cytometry; stimulated monocytes, human, blood; 45 mg single dose, 5 h, median; relative to: baseline): -59.1%

O=C(CO)[C@@H](O)[C@H](O)[C@H](O)[C@H](O)COP(=O)(O)O
log2 fold change (binding, MIDAS equilibrium dialysis LC-MS; A2AR-BRIL thermostabilized; concentration not given; relative to: no-protein control): -0.135

O=S(=O)(NCCNC/C=C/c1ccc(Br)cc1)c1cccc2cnccc12
embryos reaching 8-cell (mouse zygotes; 20 µM, 72 h post-hCG): 0%

CC[C@H](C)[C@H](N)C(=O)O
log2 fold change (binding, MIDAS equilibrium dialysis LC-MS; A2AR-BRIL thermostabilized; concentration not given; relative to: no-protein control): -0.114

N#Cc1ccn2c(-c3ccncc3)c(-c3ccc(F)cc3)nc2c1
log2 fold change (kinase binding, competitor, MIB/MS competition, refers to: CMK1; Candida albicans cell lysate; 10 µM; relative to: DMSO): -0.0172

C[C@H]1C[C@H]2CSC(N)=N[C@@]2(c2nc(NC(=O)c3ccc(OC(F)F)cn3)cs2)CO1
percent change from baseline (refers to: total Aβ; healthy adults, plasma; 160 mg single dose, 24 h post-dose; relative to: placebo): -60.8%

c1ccc(-c2n[nH]cc2-c2ccnc3ccccc23)nc1
log2 fold change (kinase binding, competitor, MIB/MS competition, refers to: YCK2; Candida albicans cell lysate; 10 µM; relative to: DMSO): -1.18

NCCS(=O)(=O)O
log2 fold change (binding, MIDAS equilibrium dialysis LC-MS; A2AR-BRIL thermostabilized; concentration not given; relative to: no-protein control): -0.111

COc1ncc(-c2nc3c(n2C(C)C)[C@H](c2ccc(Cl)cc2)N(c2cc(Cl)cn(C)c2=O)C3=O)c(OC)n1
best overall response (International Working Group criteria; human acute myeloid leukemia patients; oral, 150 mg, response CR, high-dose, other doses): 0%

Cn1cc(Nc2nccc(-c3ccc4c(c3)CN(C3COC3)CC[C@H]4NC(=O)c3cn(C(C)(C)C)nn3)n2)cn1
pathway activation z-score (refers to: HGF Signaling; splenic B cells, mouse; in vivo, 30 mg/kg, IgD-activated B cells; relative to: vehicle, positive = activation): 3.87

CC(C)NCC(O)c1ccc(O)c(O)c1 (centres unmarked)
sarcomere length (ventricular cardiomyocytes, C57BL/6 mouse; dose not given, 0.34 s): 1.72 µm

Cc1sc2c(c1C)C(c1ccc(Cl)cc1)=N[C@@H](CC(=O)NCCCCCCCCNC(=O)COc1cccc3c1C(=O)N(C1CCC(=O)NC1=O)C3=O)c1nnc(C)n1-2 (some centres unmarked)
regulatory T cells (flow cytometry; mice, 4T1 tumour, tumour; dose not given): 8.11% and 8.94% and 9.96% and 8.15%

N#Cc1ccc2c(c1)[C@H]1CCCN(C(=O)c3ccc4[nH]cnc4c3)[C@H]1C2
total urinary corticosteroids (human, urine; 360 mg, 336 h, day 14 over day -1; relative to: placebo and baseline): 143 % change

Cc1coc([C@H]2C[C@H]3[C@@H](CF)SC(N)=N[C@@]3(c3ccc(F)cc3F)CO2)n1
Aβ40 level (refers to: Aβx-40; Mus musculus wild-type, cerebrospinal fluid; subcutaneous, 80 mg/kg, 1 h): 0.86 ng/mL

CC(O)CC(=O)SCCNC(=O)CCNC(=O)[C@H](O)C(C)(C)COP(=O)(O)OP(=O)(O)OC[C@H]1O[C@@H](n2cnc3c(N)ncnc32)[C@H](O)[C@@H]1OP(=O)(O)O (some centres unmarked)
log2 fold change (binding, MIDAS equilibrium dialysis LC-MS; A2AR-BRIL thermostabilized; concentration not given; relative to: no-protein control): -0.495

C[C@H](Oc1ccc(Br)cc1-c1ccon1)C(=O)O
difference from placebo (peak grip force, handgrip dynamometry; healthy human; 400 mg, SAD): 0.882 kg

Cc1n[nH]c2ccc(-c3cc(OC[C@@H](N)Cc4ccccc4)cnc3-c3ccoc3)cc12
log2 fold change (kinase binding, competitor, MIB/MS competition, refers to: CKA2; Candida albicans cell lysate; 100 nM; relative to: DMSO): 0.0997

CC1=CC(=O)CC(C)(C)[C@@]1(O)/C=C/C(C)=C\C(=O)O
log2 fold change (RNA-seq, refers to: AT1G01470; Arabidopsis thaliana Col seedlings; dose not given; relative to: DMSO): 2.35

OC[C@H]1O[C@@H](n2cnc3c(O)nc(O)nc32)[C@H](O)[C@@H]1O
log2 fold change (binding, MIDAS equilibrium dialysis LC-MS; A2AR-BRIL thermostabilized; concentration not given; relative to: no-protein control): -0.296

CC[C@H]1[C@@H](O)[C@@H]2[C@H](CC[C@]3(C)[C@@H]([C@H](C)CCC(=O)O)CC[C@@H]23)[C@@]2(C)CC[C@@H](O)C[C@@H]12
plasma triglycerides (C57BL/6J mouse, AMLN diet NASH model; dose not given, terminal): 65 ± 7 mg/dL

Cc1cc([C@H]2C[C@H]3[C@@H](C)SC(N)=N[C@@]3(c3ccc(F)cc3F)CO2)on1
brain Aβ40 level (refers to: Aβx-40; wild-type mouse, brain; subcutaneous, 50 mg/kg, 9 h): 1.42 ng/g

COc1cc2cc(-c3ccc(CC(=O)Nc4cc(C(C)(C)C(F)(F)F)no4)cn3)cnc2cc1OC
best overall response SD (RECIST v1.1; human RET-altered solid tumours; 13 100 mg tablets, phase I): 38%

COc1ncnn2ccc(-c3cnc4nc(C)n(Cc5nnc([C@@H](C)F)o5)c4c3)c12
longest duration of response (Homo sapiens, relapsed or refractory AML or MDS; dose not given, responding patient): > 2 years

CCCC(=O)SCCNC(=O)CCNC(=O)[C@H](O)C(C)(C)COP(=O)(O)OP(=O)(O)OC[C@H]1O[C@@H](n2cnc3c(N)ncnc32)[C@H](O)[C@@H]1OP(=O)(O)O
log2 fold change (binding, MIDAS equilibrium dialysis LC-MS; A2AR-BRIL thermostabilized; concentration not given; relative to: no-protein control): -0.328

N#Cc1ccc2c(-c3ccncc3)c(-c3ccc(F)cc3)nn2c1
log2 fold change (kinase binding, competitor, MIB/MS competition, refers to: RIM8; Candida albicans cell lysate; 100 nM; relative to: DMSO): -0.18

Repeated from above:
CC1=CC(=O)CC(C)(C)[C@@]1(O)/C=C/C(C)=C\C(=O)O
log2 fold change (RNA-seq, refers to: AT1G01470; Arabidopsis thaliana Col seedlings; dose not given; relative to: DMSO): 2.35

CC(C)NCC(O)c1ccc(O)c(O)c1 (centres unmarked)
sarcomere length (ventricular cardiomyocytes, C57BL/6 mouse; dose not given, 0.34 s): 1.72 µm

C[C@H]1C[C@H]2CSC(N)=N[C@@]2(c2nc(NC(=O)c3ccc(OC(F)F)cn3)cs2)CO1
percent change from baseline (refers to: total Aβ; healthy adults, plasma; 160 mg single dose, 24 h post-dose; relative to: placebo): -60.8%

N#Cc1ccc2c(c1)[C@H]1CCCN(C(=O)c3ccc4[nH]cnc4c3)[C@H]1C2
total urinary corticosteroids (human, urine; 360 mg, 336 h, day 14 over day -1; relative to: placebo and baseline): 143 % change

OC(CCN1CCCCC1)(c1ccccc1)C1CC2C=CC1C2 (centres unmarked)
EEG Beta1-power Fz-Cz (resting-state EEG; healthy elderly humans; oral, 2 mg, eyes open, LS mean): 2.3 µV²

O=C(OC(C(F)(F)F)C(F)(F)F)N1CCN(Cc2cccc(Oc3ccccc3)c2)CC1
k3 (PET blocking study; rhesus monkey, brain OCC; 0.01 mg/kg, compound pretreatment, together with: [18F]T-401 tracer): 0.027 min⁻¹
